Results gathered from unrelated publications.
Each line is one published result; not all experiments were run side by side. Numbers after ± are the reported error.
ORM1 F1/S variants: Alpha-1-acid glycoprotein 1, F1/S variants (ORM1, Homo sapiens, UniProt P02763)
Sequence of UniProt P02763 (whole entry, looked up): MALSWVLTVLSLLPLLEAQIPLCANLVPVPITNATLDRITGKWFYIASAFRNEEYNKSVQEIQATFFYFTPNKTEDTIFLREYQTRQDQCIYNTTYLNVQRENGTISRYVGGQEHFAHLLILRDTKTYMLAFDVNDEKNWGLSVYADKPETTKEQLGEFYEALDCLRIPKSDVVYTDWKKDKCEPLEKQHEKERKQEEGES
VHL with elongin B/C: von Hippel-Lindau disease tumor suppressor, with elongin B/C (VHL, Homo sapiens, UniProt P40337)
OSBP2: Oxysterol-binding protein 2 (OSBP2, Homo sapiens, UniProt Q969R2)
Sequence of UniProt Q969R2 (whole entry, looked up): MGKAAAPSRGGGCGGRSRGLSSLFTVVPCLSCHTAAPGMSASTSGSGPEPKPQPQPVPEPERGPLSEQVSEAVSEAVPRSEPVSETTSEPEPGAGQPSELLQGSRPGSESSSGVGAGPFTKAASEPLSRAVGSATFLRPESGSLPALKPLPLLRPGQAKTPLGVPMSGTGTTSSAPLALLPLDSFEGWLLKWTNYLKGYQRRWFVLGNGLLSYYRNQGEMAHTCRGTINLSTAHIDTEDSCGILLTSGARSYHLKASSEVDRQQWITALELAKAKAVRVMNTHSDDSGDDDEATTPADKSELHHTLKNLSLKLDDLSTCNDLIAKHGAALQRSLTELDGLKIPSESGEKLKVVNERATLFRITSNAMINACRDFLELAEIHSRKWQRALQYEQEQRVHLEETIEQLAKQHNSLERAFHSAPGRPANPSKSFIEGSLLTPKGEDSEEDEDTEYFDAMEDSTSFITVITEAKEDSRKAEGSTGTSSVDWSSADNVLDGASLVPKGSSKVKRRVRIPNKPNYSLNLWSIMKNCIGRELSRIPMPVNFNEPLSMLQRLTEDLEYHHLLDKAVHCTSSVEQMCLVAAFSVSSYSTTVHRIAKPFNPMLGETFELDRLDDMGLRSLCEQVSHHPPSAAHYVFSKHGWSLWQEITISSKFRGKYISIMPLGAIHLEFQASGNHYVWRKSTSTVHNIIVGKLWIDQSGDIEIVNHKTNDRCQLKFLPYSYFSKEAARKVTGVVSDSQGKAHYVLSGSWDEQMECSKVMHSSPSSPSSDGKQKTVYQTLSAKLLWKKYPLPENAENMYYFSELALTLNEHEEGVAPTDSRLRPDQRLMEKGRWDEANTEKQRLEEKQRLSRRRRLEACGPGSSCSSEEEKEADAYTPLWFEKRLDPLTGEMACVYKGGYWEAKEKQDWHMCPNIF
uncharacterized protein: uncharacterized protein (Spodoptera exigua, UniProt F1CEY0)
CDK5 with p25: Cyclin-dependent kinase 5, with p25 (CDK5, Homo sapiens, UniProt Q00535)
Sequence of UniProt Q00535 (whole entry, looked up): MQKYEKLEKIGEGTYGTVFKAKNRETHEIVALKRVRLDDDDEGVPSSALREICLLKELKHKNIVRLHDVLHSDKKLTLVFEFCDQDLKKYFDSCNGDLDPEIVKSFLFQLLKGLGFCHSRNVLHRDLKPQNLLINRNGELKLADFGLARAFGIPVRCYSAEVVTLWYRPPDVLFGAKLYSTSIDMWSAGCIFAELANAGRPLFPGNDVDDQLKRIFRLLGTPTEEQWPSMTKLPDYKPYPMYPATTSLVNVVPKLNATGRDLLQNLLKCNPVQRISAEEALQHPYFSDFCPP
Sequence of UniProt P50406 (whole entry, looked up): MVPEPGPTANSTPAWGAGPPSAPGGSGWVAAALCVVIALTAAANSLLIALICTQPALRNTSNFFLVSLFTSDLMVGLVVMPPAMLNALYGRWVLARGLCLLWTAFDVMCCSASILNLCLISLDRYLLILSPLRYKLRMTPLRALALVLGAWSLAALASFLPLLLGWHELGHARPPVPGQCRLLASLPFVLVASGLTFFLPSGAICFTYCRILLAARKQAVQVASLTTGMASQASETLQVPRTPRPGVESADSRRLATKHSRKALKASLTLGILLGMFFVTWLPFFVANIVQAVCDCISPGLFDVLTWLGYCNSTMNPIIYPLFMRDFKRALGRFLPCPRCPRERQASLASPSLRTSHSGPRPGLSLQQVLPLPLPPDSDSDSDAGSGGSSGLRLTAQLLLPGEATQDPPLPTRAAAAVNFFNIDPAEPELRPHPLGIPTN
Sequence of UniProt P0DMS8 (whole entry, looked up): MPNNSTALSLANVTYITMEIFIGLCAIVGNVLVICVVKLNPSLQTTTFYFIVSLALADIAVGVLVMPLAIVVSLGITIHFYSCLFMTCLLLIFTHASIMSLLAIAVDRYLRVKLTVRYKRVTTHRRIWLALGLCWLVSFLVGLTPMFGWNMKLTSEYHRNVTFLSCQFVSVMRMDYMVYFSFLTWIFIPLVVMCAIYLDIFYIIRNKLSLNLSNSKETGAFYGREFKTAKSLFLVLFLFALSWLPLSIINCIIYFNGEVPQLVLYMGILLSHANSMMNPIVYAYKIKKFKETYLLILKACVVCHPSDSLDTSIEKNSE
Sequence of UniProt P33261 (whole entry, looked up): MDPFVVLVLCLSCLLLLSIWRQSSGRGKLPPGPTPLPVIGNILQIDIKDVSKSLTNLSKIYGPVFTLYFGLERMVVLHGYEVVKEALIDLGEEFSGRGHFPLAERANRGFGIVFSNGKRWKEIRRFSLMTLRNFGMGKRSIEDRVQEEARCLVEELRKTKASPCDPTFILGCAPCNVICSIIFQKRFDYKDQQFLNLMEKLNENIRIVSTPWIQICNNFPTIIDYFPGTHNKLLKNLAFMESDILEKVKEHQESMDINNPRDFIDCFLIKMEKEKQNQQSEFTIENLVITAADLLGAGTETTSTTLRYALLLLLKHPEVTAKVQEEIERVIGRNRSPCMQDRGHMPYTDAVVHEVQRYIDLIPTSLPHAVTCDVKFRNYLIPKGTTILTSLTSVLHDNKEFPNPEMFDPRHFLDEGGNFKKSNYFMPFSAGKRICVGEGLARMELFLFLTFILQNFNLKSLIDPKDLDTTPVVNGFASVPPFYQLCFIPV

| SMILES | target | test | test system | conditions | Ki |
| --- | --- | --- | --- | --- | --- |
| CCOC(=O)[C@H](CCc1ccccc1)N[C@H]1CCc2ccccc2N(CC(=O)O)C1=O | ORM1 F1/S variants | competitive inhibitor, ultrafiltration | – | 15 min, 37 °C, added: [3H]S-warfarin | 58.9 µM |
| CNC(=O)[C@@]12C[C@@H]1[C@@H](n1cnc3c(NC)nc(C#C[c-]4cccc4)nc31)[C@H](O)[C@@H]2O.[Fe+2].c1cc[cH-]c1 | 5-hydroxytryptamine receptor 6 (HTR6, Homo sapiens, UniProt P50406) | radioligand binding (PDSP) | – | – | 0.365 µM |
| Cc1ncsc1-c1ccc(CNC(=O)[C@@H]2C[C@H](O)CN2C(=O)[C@@H](NC(=O)C2(F)CC2)C(C)(C)C)c(OCCOc2ccc(CN3CCN(c4cc(-c5ccccc5O)nnc4N)CC3)cc2)c1 | VHL with elongin B/C | binding | – | – | > 30 µM |
| C[C@H](CCC(=O)O)[C@H]1CC[C@H]2[C@@H]3[C@@H](O)C[C@@H]4C[C@H](O)CC[C@]4(C)[C@H]3CC[C@]12C | OSBP2 | [3H]-25-hydroxycholesterol binding, competitive inhibitor | – | – | > 100 µM |
| O=C(CCc1ccc(O)cc1)N[C@H]1C(O)O[C@H](CO)[C@@H](O)[C@@H]1O (some centres unmarked) | Glucokinase (Leishmania braziliensis, UniProt A4HPA0) | – | – | – | 56.9 ± 16.6 µM |
| Nc1nc2c(cnn2CCc2ccccc2)c2nc(-c3ccco3)nn12 | Adenosine receptor A3 (ADORA3, Homo sapiens, UniProt P0DMS8) | NanoBRET competition binding | HEK293 expressing Nluc-A3 | co-addition with tracer | 8.13 µM |
| CCCCCCCCCCCO | uncharacterized protein | binding | – | added: 1-NPN | 3.6 µM |
| COCc1cc(C(=O)Nc2cc([C@H]3CC[C@@H](OC(=O)NC(C)C)C3)[nH]n2)n(C)n1 | CDK5 with p25 | kinase activity, inhibitor, fluorescence | – | – | 0.0066 µM |
| C[C@H](CCCC(C)(C)O)[C@H]1CC[C@H]2[C@@H]3CC=C4C[C@@H](O)CC[C@]4(C)[C@H]3CC[C@]12C | OSBP2 | binding, radioligand competition | – | added: [3H]-25-hydroxycholesterol | 0.055 ± 0.008 µM |
| N#Cc1ccc([C@H]2CCc3cncn32)c(F)c1 | Cytochrome P450 2C19 (CYP2C19, Homo sapiens, UniProt P33261) | inhibitor, item: S-mephenytoin 4'-hydroxylation | pooled human liver microsomes | pH 7.4, added: S-mephenytoin | 4.63 ± 0.353 µM |
| Cc1ncsc1-c1ccc(CNC(=O)[C@@H]2C[C@@H](O)CN2C(=O)[C@@H](NC(=O)C2(F)CC2)C(C)(C)C)c(OCCOCCOCCN2CCN(c3cc(-c4ccccc4O)nnc3N)CC2)c1 | VHL with elongin B/C | binding | – | – | 0.21 µM |
| CCN(CC)CCCN(c1ccccc1)C1Cc2ccccc2C1 | ORM1 F1/S variants | competitive inhibitor, ultrafiltration | – | 15 min, 37 °C, added: [3H]S-warfarin | 13.1 µM |
| O=c1cccccc1S | Carbonic anhydrase 2 (CA2, Homo sapiens, UniProt P00918, L197G) | esterase activity, inhibitor, p-nitrophenyl acetate hydrolysis | – | pH 8.0 | 61 ± 5 µM |
| COC(=O)C1=C(C)NC(C)=C(C(=O)OCCN(C)Cc2ccccc2)C1c1cccc([N+](=O)[O-])c1 (centres unmarked) | ORM1 F1/S variants | competitive inhibitor, ultrafiltration | – | 15 min, 37 °C, added: [3H]S-warfarin | 3.19 µM |
| CCCCCCCCCOC(C)=O | uncharacterized protein | binding | – | added: 1-NPN | 8.44 µM |
| COc1cc2c(cc1OC)-c1cc3ccc(OC)c(OC)c3c[n+]1CC2 | lipase | inhibitor | – | – | 160 µM |
| COc1ccccc1OCCNCC(O)COc1cccc2[nH]c3ccccc3c12 (centres unmarked) | ORM1 F1/S variants | competitive inhibitor, ultrafiltration | – | 15 min, 37 °C, added: [3H]S-warfarin | 7.52 µM |
| C[C@@]1(O)CCC[C@H]1n1c(=O)c(C(F)F)cc2cnc(NC3CCN(S(C)(=O)=O)CC3)nc21 | CDK5 with p25 | kinase activity, inhibitor, fluorescence | – | – | 0.00013 µM |
| COC(=O)C1=C(C)NC(C)=C(C(=O)O[C@H]2CCN(Cc3ccccc3)C2)[C@H]1c1cccc([N+](=O)[O-])c1 | ORM1 F1/S variants | competitive inhibitor, ultrafiltration | – | 15 min, 37 °C, added: [3H]S-warfarin | 29.2 µM |
| CCCCCCCCCCCCCC(C)=O | uncharacterized protein | binding | – | added: 1-NPN | 7.99 µM |

For quick reference, copied from above:
| SMILES | target | test | test system | conditions | Ki |
| --- | --- | --- | --- | --- | --- |
| COc1cc2c(cc1OC)-c1cc3ccc(OC)c(OC)c3c[n+]1CC2 | lipase | inhibitor | – | – | 160 µM |
| COc1ccccc1OCCNCC(O)COc1cccc2[nH]c3ccccc3c12 (centres unmarked) | ORM1 F1/S variants | competitive inhibitor, ultrafiltration | – | 15 min, 37 °C, added: [3H]S-warfarin | 7.52 µM |
| C[C@@]1(O)CCC[C@H]1n1c(=O)c(C(F)F)cc2cnc(NC3CCN(S(C)(=O)=O)CC3)nc21 | CDK5 with p25 | kinase activity, inhibitor, fluorescence | – | – | 0.00013 µM |
